Experimental data from different studies.
Protocols differ between the studies behind these lines.
Target: Tyrosine-protein phosphatase non-receptor type 1 (PTPN1, Homo sapiens, UniProt P18031)
Read-out: enzyme activity
Mode: inhibitor
Residues used in one study (P18031 1-435): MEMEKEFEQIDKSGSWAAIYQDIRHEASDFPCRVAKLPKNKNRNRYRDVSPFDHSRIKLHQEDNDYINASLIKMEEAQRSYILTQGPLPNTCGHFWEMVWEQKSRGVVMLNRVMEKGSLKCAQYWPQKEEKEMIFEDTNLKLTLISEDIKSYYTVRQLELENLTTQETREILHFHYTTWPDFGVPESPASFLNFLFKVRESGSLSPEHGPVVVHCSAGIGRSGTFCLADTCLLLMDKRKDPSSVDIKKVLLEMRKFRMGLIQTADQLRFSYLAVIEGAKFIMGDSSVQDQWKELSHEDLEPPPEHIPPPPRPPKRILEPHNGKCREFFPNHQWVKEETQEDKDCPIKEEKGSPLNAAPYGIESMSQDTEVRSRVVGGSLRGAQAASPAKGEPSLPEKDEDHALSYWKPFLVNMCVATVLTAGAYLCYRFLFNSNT

O=C1O[C@H](c2ccc(O)cc2)Cc2cccc(O)c21  IC50 (absorbance): > 100 µM
CC(=O)OC1CCC2(C)C(CCC3(C)C2CCC2C(C4=CC(C=C(C)C)OC4=O)CCC23C)C1(C)C (stereo not drawn)  IC50 (absorbance): 27.3 µM
CCCC1=C(CO)C(=O)CC(O)C1 (stereo not drawn)  IC50 (absorbance): 12.1 µM
C=CC1C(OC2OC(CO)C(O)C(O)C2O)OC=C(C(=O)OC)C1CC(=O)O (stereo not drawn)  IC50 (absorbance): 70.2 µM
CC(C)=CCC[C@](C)(O)[C@H]1CC[C@]2(C)[C@@H]1[C@H](O)C[C@@H]1[C@@]3(C)CC[C@H](O)C(C)(C)[C@@H]3[C@@H](O)C[C@]12C  IC50 (absorbance; pH 7.4): > 100 µM
CC(C)=CCc1c(O)cc(-c2cc3ccc(O)c(CC=C(C)C)c3o2)cc1O  IC50 (absorbance): 67.9 µM
CC1(C)C=Cc2c(cc(O)c3c(=O)cc(-c4ccc(O)cc4O)oc23)O1  IC50 (absorbance): 0.79 µM
C=CC1C(OC2OC(CO)C(O)C(O)C2O)OC=C(C(=O)OC)C1CC1CC(=O)CC(CCc2ccc(O)cc2)O1 (stereo not drawn)  IC50 (absorbance): > 100 µM
CC(/C=C/C(=O)NO)=C\[C@@H](C)C(=O)c1ccc(N(C)C)cc1  IC50 (fluorescence): > 100 µM
COc1cc(O)c(CC=C(C)C)c2c1C(=O)[C@H](O)[C@@H](c1ccccc1)O2  IC50 (absorbance): 17.8 µM
CC(C)=CCC[C@](C)(O[C@@H]1O[C@H](CO[C@@H]2OC[C@@H](O)[C@H](O)[C@H]2O)[C@@H](O)[C@H](O)[C@H]1O)C1CC[C@]2(C)C1[C@H](O)CC1[C@@]3(C)CC[C@H](O[C@@H]4O[C@H](CO)[C@@H](O)[C@H](O)[C@H]4O)C(C)(C)C3CC[C@]12C (stereo partly drawn)  IC50 (absorbance; pH 7.4): > 100 µM
COc1cc(O)cc(-c2cc3ccc(O)cc3o2)c1CC=C(C)CCC=C(C)CCC=C(C)C  IC50 (absorbance): 7.26 µM
C=CC1C(OC2OC(COC(CC3C(C(=O)OC)=COC(OC4OC(CO)C(O)C(O)C4O)C3C=C)OC)C(O)C(O)C2O)OC=C(C(=O)OC)C1CC(OC)OC (stereo not drawn)  IC50 (absorbance): > 100 µM
COc1cc(O[C@@H]2O[C@H](CO)[C@@H](O)[C@H](O)[C@H]2O)c2c(O)c3c(=O)cc(C)oc3cc2c1  IC50 (absorbance): 87.4 µM
CC(C)=CCC[C@](C)(O)[C@H]1CC[C@]2(C)[C@@H]1[C@H](O)C[C@@H]1[C@@]3(C)CC[C@H](O)C(C)(C)[C@@H]3CC[C@]12C  IC50 (absorbance): 13.4 µM
CC(C)=CCC/C(C)=C/Cc1c(O)cc2c(c1O)C(=O)C[C@@H](c1ccc(O)c(CC=C(C)C)c1O)O2  IC50 (absorbance): 57.4 µM
O=C1OC(c2ccc(O)cc2)Cc2cccc(OC3OC(CO)C(O)C(O)C3O)c21 (stereo not drawn)  IC50 (absorbance): > 100 µM
CC1(C)C=Cc2c(ccc3c2O[C@@H](c2ccc(O)cc2O)CC3)O1  IC50 (absorbance): > 100 µM
C[C@@H]1O[C@@H](O[C@H]2C(=O)c3c(O)cc(O)cc3O[C@@H]2c2ccc(O)cc2)[C@H](O)[C@H](O)[C@H]1O  IC50 (absorbance): 2.39 µM
CC(C)=CCCC1(C)Oc2ccc3cc(-c4cc(O)cc(O)c4CC=C(C)C)oc3c2CC1O (stereo not drawn)  IC50 (absorbance): 11 µM
O=C(O)c1ccc(O)cc1  IC50 (absorbance): > 100 µM
